Published values of several laboratories.
A part holds a random share of what one study measured. Substitutions count along the parent as printed.

Set 1
Target: CCND2, cyclin fold, Cln2 fusion (human)
Method: yeast growth competition, sequencing
Matrix: yeast
Notes: strong parent motif
Reference: not given
Reading: higher = stronger binding
Starting sequence: PKN2 docking peptide (human); VSAVRKLDFSDTM; partner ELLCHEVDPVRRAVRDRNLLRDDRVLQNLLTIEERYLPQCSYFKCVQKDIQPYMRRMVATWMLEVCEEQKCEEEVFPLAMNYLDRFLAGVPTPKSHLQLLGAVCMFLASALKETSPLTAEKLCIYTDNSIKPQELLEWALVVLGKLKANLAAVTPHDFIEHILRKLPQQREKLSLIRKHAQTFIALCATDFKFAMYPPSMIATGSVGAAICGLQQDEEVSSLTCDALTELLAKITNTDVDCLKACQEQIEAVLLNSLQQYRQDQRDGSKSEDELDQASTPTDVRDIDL
Variant	normalised enrichment score
VSAHRKLDFSDTM [V4H]	0.588
VSAERKLDFSDTM [V4E]	0.439
VSAVRKLCFSDTM [D8C]	1.62
VSAVRKCDFSDTM [L7C]	0.0374
VSAVRKKDFSDTM [L7K]	0.364
VSAVRKLDWSDTM [F9W]	1.03
VMAVRKLDFSDTM [S2M]	1.75
VSAVRSLDFSDTM [K6S]	1.45
VSAVMKLDFSDTM [R5M]	1.27
VSAVRKFDFSDTM [L7F]	0.367
VSAVRALDFSDTM [K6A]	1.71
VSCVRKLDFSDTM [A3C]	2.19
VSAVRCLDFSDTM [K6C]	3.22
VSAVRKLAFSDTM [D8A]	1.31
VSAVRKLDFSDFM [T12F]	3.55
VSAVRPLDFSDTM [K6P]	-0.0795
VSAVRKLDHSDTM [F9H]	-0.0533
VSAVRKLDFSFTM [D11F]	2.44

Set 2
Target: PABPC1L2, full length, GST fusion (mouse, UniProt A0ABA7IW68)
Method: RNAcompete
Form: RNA
Matrix: in vitro
Tested at: 20 nM
Notes: 7-mer, probes averaged, single round
Reference: mean of 7-mers
Reading: higher = stronger binding
Construct (chain): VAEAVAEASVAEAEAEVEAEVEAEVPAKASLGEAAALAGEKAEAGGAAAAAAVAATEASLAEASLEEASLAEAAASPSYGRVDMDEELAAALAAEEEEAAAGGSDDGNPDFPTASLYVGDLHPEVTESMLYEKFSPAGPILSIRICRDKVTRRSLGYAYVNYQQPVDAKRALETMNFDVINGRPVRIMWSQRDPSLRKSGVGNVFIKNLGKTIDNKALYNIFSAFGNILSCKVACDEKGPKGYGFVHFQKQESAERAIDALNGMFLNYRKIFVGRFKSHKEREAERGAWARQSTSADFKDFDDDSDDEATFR
Sequence	7-mer Z-score
GCAGACA	0.249
UGCGCCG	-0.275
ACUCGGG	0.211
CGGGUCA	0.133
ACCGUUU	-0.3
CAGAGUC	-0.162
CGUCACU	-0.434
CAUAGUA	-0.202
GUCUGAG	-0.113
UGGUGAC	-0.0264
GUUCGUU	-0.47
UCAUUUG	-0.416
GGAUUUG	-0.206
ACAACUC	-0.0464
CCUCGAC	-0.365
CAUGUCC	-0.13
GGCUCCA	0.0442
GGAUACA	0.312
GUUGCAA	-0.124
AUACCUC	-0.264
CCAGAAG	-0.11
CUAAAAA	16.9
CGUAUCC	-0.371
AGUAUUU	-0.177

Set 3
Target: Histone acetyltransferase KAT6A, winged helix 2, GST fusion (KAT6A, Homo sapiens, UniProt Q92794, residues 85-181)
Method: protein binding microarray
Form: double-stranded DNA, one strand shown
Matrix: in vitro
Tested at: not given
Notes: 8-mer, flanks averaged, mean of 2 arrays, mostly near background
Reference: not given
Reading: higher = stronger binding
Residues (chain): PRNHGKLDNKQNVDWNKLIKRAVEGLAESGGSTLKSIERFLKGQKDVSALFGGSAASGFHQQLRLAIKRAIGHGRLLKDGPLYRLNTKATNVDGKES
Sequence	E-score
GTCACTAA	-0.111
AGCAGACT	0.121
ACGCACCC	-0.0356
CGCTGACA	0.106
GACTGATC	-0.056
AGTATCCC	-0.0596
CCTCTGCG	-0.00246
AGGCGGAC	0.255
TATGGAGA	-0.123
AATTTAAG	0.0594
ATCTTGGA	0.0875
GCTCGCGA	0.154
AGTCGATG	-0.0439
GACAGTGC	-0.0474
CCTCCCAG	-0.00258
ACTGCGTG	0.1
AGGTCGGC	0.246
CAGACGGC	0.0681
AAGTGAAA	0.0493
AGGATCCC	-0.108
CTACACCC	0.023
TACTTATA	-0.0315
ACAGCTTA	-0.11
AGTTCTCA	-0.0795
GTTCGCAA	0.173

Set 4
Target: CEBPB, bZIP domain (human)
Method: DHFR protein complementation
Matrix: yeast
Notes: single substitutions, most at no-binding floor
Reference: wild-type JUN-FOS pair
Reading: higher = stronger binding
Starting sequence: JUN, bZIP domain (human); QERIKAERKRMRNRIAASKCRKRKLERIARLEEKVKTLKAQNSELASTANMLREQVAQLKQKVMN; partner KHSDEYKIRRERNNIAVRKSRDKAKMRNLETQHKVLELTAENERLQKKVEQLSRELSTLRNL
Variant	binding fitness [natural log]
T37S	-1.39
L52P	-1.5
A46E	-1.08
R30K	-1.26
K36P	-1.52
L38C	-1.48
T48G	-1.44
A29Y	-1.33
A46G	-1.42
E44T	-1.28
A49C	-1.44

Set 5
Target: UBE2E2 UBC core domain (UniProt Q96LR5)
Sequence of UniProt Q96LR5 (whole entry, looked up): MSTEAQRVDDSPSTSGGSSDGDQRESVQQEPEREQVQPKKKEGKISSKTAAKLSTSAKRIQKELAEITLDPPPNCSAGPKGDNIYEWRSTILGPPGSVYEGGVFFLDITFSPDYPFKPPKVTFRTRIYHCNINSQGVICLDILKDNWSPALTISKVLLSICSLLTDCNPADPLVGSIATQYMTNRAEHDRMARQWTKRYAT
Method: yeast two-hybrid
Matrix: yeast
Notes: mostly zero background
Reference: not given
Reading: higher = stronger interaction
B1: SHPRH RING domain (UniProt Q149N8); chain KTSGGVNPEPCPICARQLGKQWAVLTCGHCFCNECISIIIEQYSVGSHRSSIKCAICRQTTSHKEISY
B2: RNF32 RING domain (UniProt Q9H0A6); chain VQALRRETHECSICLAPLSAAGGQRVGAGRRSREMALLSCSHVFHHACLLALEEFSVGDRPPFHACPLCRSCYQKKILEC
B3: RNF17 RING domain (UniProt Q9BXT8); chain SQPWGAAEIQCTRCGRRVSRSSGHHCELQCGHAFCELCLLMTEECTTIICPDCEVATAVNTRQR
B4: TRIM74 RING domain (UniProt Q86UV6); chain SLLELEDWLQCPICLEVFKESLMLQCGHSYCKGCLVSLSYHLDTKVRCPMCWQVVDGSSSLP
B5: RMND5B RING domain (UniProt Q96G75); chain MKCWYHSVFACPILRQQTSDSNPPIKLICGHVISRDALNKLINGGKLKCPYCPMEQNPADGK
B6: TRIM34 RING domain (UniProt Q9BYJ4); chain ILLNVQEEVTCPICLELLTEPLSLDCGHSLCRACITVSNKEAVTSMGGKSSCPVCGISYSFEHLQA
Sequence	lacZ reporter activity
AAQLLEEKLTCAICLGLYQDPVTLPCGHNFCGACIRDWWDRCGKACPECREPFPDGAELR (TRIM65 RING domain (UniProt Q6PJ69))	0
B1 (SHPRH RING domain)	0
B2 (RNF32 RING domain)	0
B3 (RNF17 RING domain)	0
GSEEEEIPFRCFICRQAFQNPVVTKCRHYFCESCALEHFRATPRCYICDQPTGGIFNPA (RNF113B RING domain (UniProt Q8IZP6))	0
B4 (TRIM74 RING domain)	0
SNNDLASLFECPVCFDYVLPPILQCQSGHLVCSNCRPKLTCCPTCRGPLGSIRNLA (SIAH1 RING domain (UniProt Q8IUQ4))	0
MEEMEEELKCPVCGSFYREPIILPCSHNLCQACARNILVQTPESESPQSHRAAGSGVSDY (TRIM9 RING domain (UniProt Q9C026))	0
B5 (RMND5B RING domain)	0
B6 (TRIM34 RING domain)	0

Set 6
Target: RING finger protein unkempt homolog, zinc fingers 1-6, SBP tag (UNK, Homo sapiens, UniProt Q9C0B0, residues 30-357)
Sequence of UniProt Q9C0B0 (30-357, looked up): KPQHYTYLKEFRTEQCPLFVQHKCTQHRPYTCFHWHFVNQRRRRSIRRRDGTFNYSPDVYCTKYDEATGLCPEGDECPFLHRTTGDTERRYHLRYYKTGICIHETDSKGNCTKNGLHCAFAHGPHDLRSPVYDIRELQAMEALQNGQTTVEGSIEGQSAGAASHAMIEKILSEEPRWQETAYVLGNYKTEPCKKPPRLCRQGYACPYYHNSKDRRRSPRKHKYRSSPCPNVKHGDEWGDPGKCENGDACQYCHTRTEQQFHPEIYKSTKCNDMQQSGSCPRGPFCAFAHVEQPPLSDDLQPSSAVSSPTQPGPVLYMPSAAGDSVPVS
Method: RNA Bind-n-Seq
Form: RNA
Matrix: in vitro
Tested at: 100 nM
Notes: RNA with constant flanks, vertebrate orthologous sites, ends assumed
Reference: input RNA pool
Reading: higher = stronger binding
Constant ends, left off below: GGGAGUUCUACAGUCCGACGAUC … CAACAGAGGAUUGAGCAUCA
Sequence	bound/input enrichment [ratio]
GUUGGUGCAGAGGGCUCUCUGUAUCAGUGCCCAUCACCCCUUCUUCAUACCAACUGUCCCUAGUUAUAGGAAUUUAAUAUUUUUAAAAGUUUUACAUUGCUGUAUAUUCAAAGAUUUGUU	0.736
UCAGUCCCCUGGGCUGGGACAGAUUUUUUUUAACGUCUUGAAACUUAAACUUUGUGCUUGUAGGAGACUGUAACCUUUUUGUCUUUUUUUUUUUUUAAACAAACAACCUCCACCUCCAGU	0.715
UGGGUUACUCUUAUUAUUAUCAAGUAGCUGGAAUUGUGAAGGUCGGAGUAGUUAGAUCUUUAGCUUUGAUUCCUUAUUUUUUUUUUGUAUUACUAUCCAUGUGUAUAAAUUAUUGAUCAU	0.98
CAAAAACGUUUCCACUGGGUUUUGCCUGUAAGAAAAAAAAAAAAAAUGUACCCGAGCACAUAGAGCUUUUUAAUAGCACUAACCAAUGCCUUUUUAGAUGUAUUUUUGAUGUAUAUAUCU	0.705
UCCCCUGAGCCGGGACAGAUUUUUUUUUUUAAUGUCUUGAAACUUAAAACUCUGUGCUUGUAGGAGACUGUAACCUUUUUGUCUUUUUUUUUUUUUAAAAAAAAAAACAAUCUCCACCUC	0.535
UUGGGACCAGCUCUCCAAAUAAGAAUAGUAGUAAAAAAAAUAAGCAAAAUGAUAUUUGUAUAGAAAAAACAGAAGUUAAAUCAUGUAGAAUCAAUGCUGCCAACAUAGCAAGCCCUAGAG	2.36
GUUUUGUUUUGUUGCACGUGACGGUUUGUAUUGAGGACCCUCUGAGGAAGAGGGGUGCUGUAGCAGUGGUCCCUGCGUGCCUGGCUCCAGUGUCCUGCCCUCCCCCCCCUCGCCAUGGCU	0.779
